Published values pooled from the literature.
Protocols differ between the studies behind these lines.
Method: steady-state kinetics
B1: BshA Y95F (Bacillus subtilis, UniProt P42982); chain MRKLKIGITCYPSVGGSGIIATELGKQLAEKGHEIHFITSSIPFRLNTYHPNIHFHEVEVNQYAVFKYPPYDLTLASKIAEVAERENLDIIHAHFALPHAVCAYLAKQMLKRNIGIVTTLHGTDITVLGYDPSLKDLIRFAIESSDRVTAVSSALAAETYDLIKPEKKIETIYNFIDERVYLKKNTAAIKEKHGILPDEKVVIHVSNFRKVKRVQDVIRVFRNIAGKTKAKLLLVGDGPEKSTACELIRKYGLEDQVLMLGNQDRVEDLYSISDLKLLLSEKESFGLVLLEAMACGVPCIGTNIGGIPEVIKNNVSGFLVDVGDVTAATARAMSILEDEQLSNRFTKAAIEMLENEFSSKKIVSQYEQIYADLAEPE
B2: enzyme G29Y (Thermobifida fusca, UniProt Q47RA9); chain MIMIMASKSSPHDLPDVSGLSIAVLGGTYDQGRGLARRFAMAGHEVILGSRSAERAQAVAAELGEGLPVRGMDNAGAAEAGDVVIVAVPWDGHRALLESLKDVLAGKIVVDCVNPLGFDKRGAYALPVEEGSAAEQAAAILPDSRVVAAFHHVSAVLLLDPEVEKVDLDVLVLGDDREATDVVRALAARIPGVRGVYGGRLRNAHQVEAFTANLISINRRYKAHAGIRITDI
B3: protein (UniProt M4ZR24); chain MNEIGTTWAEGTSERVIRLLTDKRAGRPMSGPDIEGLVKDFTAGSVPDYQMASWLATVACAGLSAEELTALTAAYVDSGERLSLSSSRRPVADKHSTGGVGDKTTLVVAPVVAACGIGVGKVTGRGLGFMGGTVDKLESIPGLDLELSGSALSAQVADLGLAVTGQSPSLVPGDRMTYALRDVTGTVDSIPLIAASIMSKNTKGIAVRCNSIVLDVKYGDGAVLPDRAVATELARTMLELGRSFDLPTTAVISSMEQPLGYAVGNGLEVREAIIALSGTYVEDLTELAITISALMISTADSAVDHDRARDRVREVLSDGSALRMFRAFVARQGGDVGFVDDPSRLETAPHRLVVTATEAGHVARIAARRIGEAALRVGAGRLVYGAPIDHGAGIVLSRRIGDSVAEGEPLATLHGSDYDQLESLADVVRGCFDISERPPGRPDVIVDVLRQGDAG
B4: putA E1012A (Rhodobacter capsulatus, UniProt D5AN87); chain MTDLSALGPKAKFAPEAEVLQALVAQAALPQPQLDRIAARGADLVARIRAEAKPSLMEHFLAQYGLSTREGVALMCLAEAMLRVPDTATIDALIEDKIAPSDWGKHLGTAASSLVNASTWALMLTGKVLDDGAGGIAGTLRGAMRRLGEPVIRAAVGQAMREMGRQFVLGETIEKALERAEKREAEGYTFSYDMLGEAALTAADAERYRLAYAQAITAIGKAATRGSIAANPGISIKLSALHPRYEVAQEARVMAELVPVVRDLARAAARAGIALHIDAEEQDRLALSLRVMAAVIADPETAGWEGFGAVVQAYGKRAGAAIDALAAMARAAGRRINIRLVKGAYWDAEMKRAQVEGHPGFPLFTSKTGTDVAYICLAAKLFGLNDCIYPQFATHNAHTVAAVLEMAAGRPFEFQRLHGMGARLHDIVLRETGGRCRIYAPVGAHRDLLAYLVRRLLENGANSSFVNQIVNESVPPAEVAACPFAALPTARAPRGLLAPADLFGAGRVNAQGFDLSDPEVLARIEAARDVTLPDAAPIVAGPVSGTLRPVRNPATGAVVAQVTEADAATVALALDAAQVWSAPAATRAAVLCRAADLYEENFGPIFAALAQEAGKTLGDAVSELREAVDFLRYYAAEGAADTRPPRGAVVAISPWNFPLAIFTGQVAAALMAGNAVLAKPAEQTPIIAALAVRLLHQAGVPETALQLLPGDGPTVGAALTRDPRVAGVVFTGSTETAQIIARAMAAHLAPGTPLIAETGGLNAMVVDSTALPEQAVRDVVASAFRSAGQRCSALRCLYVQDDIAPHLIGMLKGAMEELVSGDPARLSTDVGPVIDAEAKAGIETYLAANKARILHRSTAPEGGHFVAPALLQVGGIADLEREIFGPVLHLATFAAEDLPAVIAAINARGYGLTFGLHSRIDARVETVAETIRAGNIYVNRNQIGAVVGSQPFGGEGLSGTGPKAGGPLYLNRFYAPEPVVAVGGWTEAATPILPEARETQLDEIFLPGPTGALNRLTRHQRGPILCLGPGAEAASAQAAAVVALGGQAVQASGAVSPKALETLTPLAGVLWWGAAEMGRAYAQALAVRPGPLVPLITAKPDLAHVAHERHLCVDTTAAGGNAALLAG
B5: protein (Rheum palmatum, UniProt A0A7L9A2S6); chain MKKTELVFLPAPAPGHLVSTVEFSKRLIARDARLTVTILVISSPFSRGAQTNPSPGIRYVTLPQVDVPQHLMKDSIEHTISVYIASHAPHVRDAVAALQTESTVHVAGLFLDMFCTPMIDVANELGLPSYVFFCSSAGFLGLLLHLPVHSQPRFDETGLDVLIPSFQNPVPTRVLPRFGFNELGYKSFMDHAKRFGETKGIIINTYAELEPYALKSLLDAYDTAPVYAVGPVLDLRSQVHMPCDAAERARIMGWLDKQPDSSVVFLCFGSGGSFSEHQIREISKGLSQSGQRFLWSVRKPPTGGLVKPTEYTETELRSVLGDEFWSLLDEGERGVVCGWAPQVEVLGHKSVGAFVSHCGWNSTLESLWFGKPMVTWPLYAEQQMNAFELVKELGIAVELTLDYRLHSSEVVEAREVERAVRRVMDENNPVRYKVKEMAEVCRATLVEGGSSFVCVDRLISGFLGEIN
B6: CstB (Staphylococcus aureus, UniProt G5ELA4); chain MFFKQFYDNHLSQASYLVGCQRTGEAIIIDPVRDLSKYIEVADSEGLTITQATETHIHADFASGIRDVAKRLNANIYVSGEGEDALGYKNMPSKTQFVKHGDIIQVGNVKLEVLHTPGHTPESISFLLTDLGGGSSVPMGLFSGDFIFVGDIGRPDLLEKSVQIKGSTEISAKQMYESVQNIKNLPDYVQIWPGHGAGSPCGKALGAIPISTIGYEKINNWAFNEIDETKFIESLTSNQPAPPHHFAQMKQVNQFGMNLYQSYDVYPSLDNKRVAFDLRSKEAFHGGHTKGTINIPYNKNFINQIGWYLDFEKDIDLIGDKSTVEKAKHTLQLIGFDKVAGYRLPKSGISTQSVHSADMTGKEEHVLDVRNDEEWNNGHLDQAVNIPHGKLLNENIPFNKEDKIYVHCQSGVRSSIAVGILESKGFENVVNIREGYQDFPESLK
B7: enzyme R116A (Acetivibrio thermocellus, UniProt A3DJ38); chain MKLTIPELSLVVLIGSSGSGKSTFAKKHFKPTEVISSDFCRGLVSDDENDQTVTGAAFDVLHYIVSKRLQLGKLTVVDATNVQESARKPLIEIAKDYHCFPVAVVFNLPEKVCQEANKNRTDRQVEEYVIRKHTQQLKKSIKGLQREGFRYVYILNSPEEVEEVVFERQP

enzyme (Caballeronia cordobensis, UniProt P0DXY1)  Km (NC(=O)C1=CN([C@@H]2O[C@H](COP(=O)(O)OP(=O)(O)OC[C@H]3O[C@@H](n4cnc5c(N)ncnc54)[C@H](O)[C@@H]3O)[C@@H](O)[C@H]2O)C=CC1; pH 8, apparent, not purified, cofactor varied): 92.8 µM
B1 (BshA Y95F)  Km (O=C(O)C[C@H](O)C(=O)O; pH 7.5, 21 °C, together with: UDP-GlcNAc 0–4 mM): 700 µM
B2 (enzyme G29Y)  Km (NC(=O)c1ccc[n+](CCO)c1; pH 8, 25 °C): 23000 µM
B3 (protein)  Km (NC[C@H]1O[C@@H](n2ccc(=O)[nH]c2=O)[C@H](O)[C@@H]1O; phosphorolysis, single substrate, together with: phosphate): 820 µM
B4 (putA E1012A)  Km (O=C(O)[C@@H]1CCCN1; pH 8, 23 °C): 15300 µM
B5 (protein)  Km (COc1cc(-c2oc3cc(O)cc(O)c3c(=O)c2O)ccc1O; pH 7.5, 35 °C, apparent, together with: UDP-glucose): 663 µM
axeA (Thermotoga maritima, UniProt Q9WXT2)  Km (CC(=O)Oc1ccc([N+](=O)[O-])cc1; pH 6.5, 50 °C, temperature uncertain, apparent): 120 µM
IYD (Homo sapiens, UniProt Q6PHW0)  Km (Cc1cc(C[C@H](N)C(=O)O)cc(I)c1O; pH 7.4, 25 °C, together with: sodium dithionite 0.5%): 50 µM
CYP2C19 (Homo sapiens, UniProt P33261)  Km (CN1C(=O)CC[C@H]1c1cccnc1; microsomes; pH 6.7, cotinine to COX, not purified): 405 µM
B6 (CstB)  Km (O=S(O)(O)=S; pH 6, 25 °C, together with: KCN 50 mM): 1700 µM
B7 (enzyme R116A)  Km (Nc1ncnc2c1ncn2[C@@H]1O[C@H](COP(=O)(O)OP(=O)(O)OP(=O)(O)O)[C@@H](O)[C@H]1O; pH 7, 45 °C): 40 µM
UGT1A9 (Homo sapiens, UniProt O60656)  Km (O=c1cc(-c2cccc(O)c2)oc2cc(O)ccc12; pH 7.4, 37 °C): 29.6 µM
pcpF (Sphingobium chlorophenolicum, UniProt Q8KN33)  Km (N[C@@H](CS)C(=O)O; pH 6.5, together with: GS-TriCH, ascorbic acid 2 mM): 1970 µM
